Measured values pooled from the literature.
Protocols differ between the studies behind these lines. ± gives the spread as reported. ≈ marks a conversion by molar mass, not a printed value.
Sequence of UniProt Q9UQD0 (whole entry, looked up): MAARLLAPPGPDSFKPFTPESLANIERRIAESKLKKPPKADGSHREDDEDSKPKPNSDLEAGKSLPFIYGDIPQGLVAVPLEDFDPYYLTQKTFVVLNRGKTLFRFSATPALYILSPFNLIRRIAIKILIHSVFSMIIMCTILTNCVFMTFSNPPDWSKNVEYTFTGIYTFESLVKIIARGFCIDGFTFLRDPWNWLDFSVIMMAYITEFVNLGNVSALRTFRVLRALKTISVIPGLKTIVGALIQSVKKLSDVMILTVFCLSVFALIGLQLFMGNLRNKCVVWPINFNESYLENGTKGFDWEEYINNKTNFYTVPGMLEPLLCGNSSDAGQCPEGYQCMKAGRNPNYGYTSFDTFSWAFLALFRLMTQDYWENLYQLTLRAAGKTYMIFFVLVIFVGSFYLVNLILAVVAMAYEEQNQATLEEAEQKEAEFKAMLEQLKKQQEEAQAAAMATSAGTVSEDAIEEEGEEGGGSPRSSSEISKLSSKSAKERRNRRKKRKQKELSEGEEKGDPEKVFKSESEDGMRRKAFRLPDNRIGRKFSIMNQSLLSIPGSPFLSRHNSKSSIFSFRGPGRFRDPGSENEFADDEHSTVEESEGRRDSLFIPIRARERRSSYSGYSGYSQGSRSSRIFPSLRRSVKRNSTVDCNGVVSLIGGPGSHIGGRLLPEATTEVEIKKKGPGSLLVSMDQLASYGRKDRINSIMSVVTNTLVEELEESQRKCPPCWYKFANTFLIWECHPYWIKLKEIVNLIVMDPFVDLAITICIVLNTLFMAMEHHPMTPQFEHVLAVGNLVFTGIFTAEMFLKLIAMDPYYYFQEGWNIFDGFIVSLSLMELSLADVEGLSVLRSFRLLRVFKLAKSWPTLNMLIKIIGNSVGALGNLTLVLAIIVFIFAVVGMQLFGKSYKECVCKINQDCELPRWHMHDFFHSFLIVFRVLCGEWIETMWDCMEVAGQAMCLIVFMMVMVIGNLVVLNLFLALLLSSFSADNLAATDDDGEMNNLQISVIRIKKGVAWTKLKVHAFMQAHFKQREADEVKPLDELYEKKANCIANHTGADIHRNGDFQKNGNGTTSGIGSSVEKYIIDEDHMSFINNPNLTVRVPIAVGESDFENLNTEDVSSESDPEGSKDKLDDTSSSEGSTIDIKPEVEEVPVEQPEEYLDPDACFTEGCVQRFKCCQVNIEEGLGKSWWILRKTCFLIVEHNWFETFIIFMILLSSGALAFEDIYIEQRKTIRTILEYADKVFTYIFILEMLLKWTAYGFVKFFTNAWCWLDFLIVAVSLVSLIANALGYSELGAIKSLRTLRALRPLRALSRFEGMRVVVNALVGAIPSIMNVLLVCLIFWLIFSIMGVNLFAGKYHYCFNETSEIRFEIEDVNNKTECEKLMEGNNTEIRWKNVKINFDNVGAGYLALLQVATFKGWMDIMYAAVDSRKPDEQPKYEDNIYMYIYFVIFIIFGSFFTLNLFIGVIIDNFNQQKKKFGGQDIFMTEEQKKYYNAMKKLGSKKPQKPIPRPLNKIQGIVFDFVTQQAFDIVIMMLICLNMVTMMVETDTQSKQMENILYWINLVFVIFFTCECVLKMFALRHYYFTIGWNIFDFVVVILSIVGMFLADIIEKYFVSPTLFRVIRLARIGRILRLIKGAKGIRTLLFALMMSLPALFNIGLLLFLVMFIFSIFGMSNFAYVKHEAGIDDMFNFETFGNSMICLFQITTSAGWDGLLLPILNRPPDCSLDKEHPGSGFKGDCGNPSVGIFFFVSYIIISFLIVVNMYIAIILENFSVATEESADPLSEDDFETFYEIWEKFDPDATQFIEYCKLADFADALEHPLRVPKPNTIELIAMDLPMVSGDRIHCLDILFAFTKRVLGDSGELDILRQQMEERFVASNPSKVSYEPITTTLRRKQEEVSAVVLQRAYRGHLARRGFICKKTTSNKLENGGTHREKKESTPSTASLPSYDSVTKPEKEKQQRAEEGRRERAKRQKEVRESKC

`Cc1ccc(N2CC3CC(C2)N3C)cc1C(=O)NC1(c2ccc3c4c(cccc24)C(=O)N3C)CC1` gave an inhibition of 0% (Severe acute respiratory syndrome coronavirus 2; viral replication; Vero C1008; 5.716 nM).
`C[C@]12C=CC(=O)C=C1CC[C@@H]1[C@@H]2[C@@H](O)C[C@@]2(C)[C@H]1C[C@H]1OC(C3CCCC3)O[C@]12C(=O)CO` (stereo partly shown) has an IC50 of 16.6 µM (Severe acute respiratory syndrome coronavirus 2; viral replication; VeroE6/TMPRSS2).
For `CCCCCCCCCCCCCCCC(=O)N[C@@H](CCC(=O)NCCOCCOCCC(=O)NCCOCCOCCC(=O)NCCCC[C@H](NC(=O)[C@H](CC(=O)O)NC(=O)[C@H](CC(C)C)NC(=O)[C@H](Cc1ccc(O)cc1)NC(=O)[C@H](CCCCN)NC(=O)[C@H](CO)NC(=O)[C@H](Cc1ccc(O)cc1)NC(=O)[C@H](CC(=O)O)NC(=O)[C@H](CO)NC(=O)[C@@H](NC(=O)[C@H](Cc1ccccc1)NC(=O)[C@@H](NC(=O)CNC(=O)[C@H](CCC(N)=O)NC(=O)[C@@H](CO)NC(=O)[C@@H](N)Cc1c[nH]cn1)[C@@H](C)O)[C@@H](C)O)C(=O)N[C@@H](CCCNC(=N)N)C(=O)N[C@@H](CCCNC(=N)N)C(=O)N[C@@H](C)C(=O)N[C@@H](CCC(N)=O)C(=O)N[C@@H](CC(=O)O)C(=O)N[C@@H](Cc1ccccc1)C(=O)N[C@H](C(=O)N[C@@H](CCC(N)=O)C(=O)N[C@@H](Cc1c[nH]c2ccccc12)C(=O)N[C@@H](CC(C)C)C(=O)N[C@@H](CC(C)C)C(=O)N[C@@H](CC(N)=O)C(=O)N[C@H](C(=O)NCC(=O)NCC(=O)N1CCC[C@H]1C(=O)N[C@@H](CO)C(=O)N[C@@H](CO)C(=O)NCC(=O)N[C@@H](C)C(=O)N1CCC[C@H]1C(=O)N1CCC[C@H]1C(=O)N1CCC[C@H]1C(=O)N[C@@H](CO)C(N)=O)[C@@H](C)O)C(C)C)C(=O)O`, “serum enzyme activity” read 86.3 ± 23.8 U/L (measured: ALP; Sprague-Dawley rat, female; subcutaneous, 500 µg/kg once daily, 14 days).
The inhibition of `O=C(C=Cc1ccc(O)c(O)c1)OC1CC(O)(C(=O)O)CC(OC(=O)C=Cc2ccc(O)c(O)c2)C1O` (stereo not shown) is reported as 0% (Severe acute respiratory syndrome coronavirus 2; cytopathic effect; Vero C1008; 3.125 µM).
`Cc1cc(/C=C/C#N)cc(C)c1Nc1nc(Nc2ccc(C#N)cc2)ncc1N` gave an EC50 of 0.0814 ± 0.0081 µM (HIV-1; viral replication, single-round infection; RT mutant K101P/V179I).
With `CO/C1=C\C(C)=C\[C@@H](C)[C@@H](O)[C@@H](C)C/C(C)=C/C=C/[C@H](OC)[C@@H]([C@@H](C)[C@@H](O)[C@H](C)C(=O)/C=C/[C@H](C)[C@H](O)C(C)C)OC1=O` the inhibition was 92% (Severe acute respiratory syndrome coronavirus 2; viral replication; Calu-3; 50 µM).
The IC50 of `O=P(O)(OCc1ccccc1)Oc1c2c(c(OP(=O)(O)OCc3ccccc3)c3c1C1CC3c3cc4c(cc31)C1CC4c3ccccc31)C1CC2c2cc3c(cc21)C1CC3c2ccccc21` is reported as 8.5 µM (Severe acute respiratory syndrome coronavirus 2; viral replication; Caco-2).
`COC(=O)c1cc2c(=O)n3ccccc3nc2n1Cc1ccccc1` gave an inhibition of 51.9% (Severe acute respiratory syndrome coronavirus 2; viral replication; Vero; 10 nM).
For `CC[C@H](C)[C@H](NC(=O)[C@H](CCCCN)NC(=O)[C@H](CCCCN)NC(=O)[C@H](CC(C)C)NC(=O)[C@H](Cc1c[nH]c2ccccc12)NC(=O)CN)C(=O)NCC(=O)N[C@@H](CCCCN)C(=O)N[C@@H](CCCCN)C(=O)N[C@H](C(=O)N[C@@H](CCC(=O)O)C(=O)N[C@@H](CCCNC(=N)N)C(=O)N[C@H](C(=O)NCC(=O)N[C@@H](CCC(N)=O)C(=O)N[C@@H](Cc1c[nH]cn1)C(=O)N[C@H](C(=O)N[C@@H](CCCNC(=N)N)C(=O)N[C@@H](CC(=O)O)C(=O)N[C@@H](C)C(=O)N[C@H](C(=O)N[C@H](C(=O)N[C@@H](CCC(N)=O)C(=O)N[C@H](C(=O)N[C@H](C(=O)NCC(=O)N[C@H](C(=O)N[C@@H](C)C(=O)N[C@@H](CCC(N)=O)C(=O)N[C@@H](CCC(N)=O)C(=O)N[C@@H](C)C(=O)N[C@@H](C)C(=O)N[C@@H](CC(N)=O)C(=O)N[C@H](C(=O)N[C@@H](C)C(=O)N[C@@H](C)C(=O)N[C@H](C(=O)N[C@@H](CC(C)C)C(=O)N[C@@H](CCCCN)C(N)=O)[C@@H](C)O)C(C)C)C(C)C)[C@@H](C)CC)[C@@H](C)O)[C@@H](C)CC)[C@@H](C)O)[C@@H](C)O)C(C)C)[C@@H](C)CC`, the MIC was 0.031 µg/mL (≈ 7.38 nM) (Escherichia coli, Acinetobacter baumannii; broth microdilution; 150 mM NaCl, 10% human serum).
`Cc1cc(/C=C/C#N)cc(C)c1-n1cnc2cnc(Nc3ccc(C#N)cc3)nc21` gave an EC50 of 0.0021 ± 0.0001 µM (HIV-1; viral replication, single-round infection; RT mutant E138K).
`N=C(OC1O[C@H](COC(=O)c2ccccc2)[C@@H](OC(=O)c2ccccc2)[C@H](OC(=O)c2ccccc2)[C@H]1OC(=O)c1ccccc1)C(Cl)(Cl)Cl` (stereo partly shown) gave an inhibition of 38.9% (Severe acute respiratory syndrome coronavirus 2; viral replication; 293T/ACE2; 20 µM).
For `O=C(O[C@@H]1Cc2c(O)cc(O)cc2O[C@H]1c1ccc(O)c(O)c1)c1cc(O)c(O)c(O)c1`, the EC50 was greater than 100 µM (Severe acute respiratory syndrome coronavirus 2; antiviral activity; Huh-7; 96 h).
The IC50 of `CCCCCCCCCC1O[C@@H]2C[C@H]3[C@@H]4CCC5=CC(=O)C=C[C@]5(C)[C@H]4[C@@H](O)C[C@]3(C)[C@]2(C(=O)CO)O1` (stereo partly shown) is reported as 6.9 µM (Severe acute respiratory syndrome coronavirus 2; viral replication, inhibitor; VeroE6/TMPRSS2; 24 h).
`CC(C)C[C@@H]1NC(=O)[C@H](CCCNC(=N)N)NC(=O)[C@@H]2CCCN2C(=O)[C@@H]2CSSC[C@H](NC(=O)CNC(=O)[C@@H]3CCCN3C(=O)[C@H](CCCCN)NC(=O)[C@H](CC(=O)O)NC(=O)[C@@H](NC(=O)CN)C(C)C)C(=O)N[C@@H](CCCNC(=N)N)C(=O)N[C@@H](Cc3ccc(O)cc3)C(=O)N[C@@H](CC(C)C)C(=O)N[C@@H](Cc3ccccc3)C(=O)NCC(=O)NCC(=O)N[C@H]3CSSC[C@H](NC(=O)CNC1=O)C(=O)N[C@@H](CCCCN)C(=O)NCC(=O)N[C@@H](CCCCN)C(=O)NCC(=O)N[C@@H](Cc1c[nH]cn1)C(=O)N[C@@H](CC(=O)O)C(=O)N[C@@H](Cc1ccc(O)cc1)C(=O)N[C@H](C(=O)N[C@@H](C)C(=O)N[C@@H](Cc1c[nH]c4ccccc14)C(=O)N[C@@H](CC(=O)O)C(=O)NCC(=O)N[C@H](C(=O)N[C@@H](Cc1ccccc1)C(=O)N[C@@H](CO)C(=O)N[C@@H](CC(=O)O)C(=O)O)[C@@H](C)O)CSSC[C@H](NC(=O)[C@H](CC(=O)O)NC(=O)[C@H](CC(=O)O)NC(=O)[C@H](CC(=O)O)NC(=O)[C@H](CO)NC(=O)[C@H](CCCCN)NC3=O)C(=O)N2` — result for “inactivation time constant ratio”: 3.58 ± 0.54 (Sodium channel protein type 8 subunit alpha (SCN8A, Homo sapiens, UniProt Q9UQD0); sodium current, automated patch clamp; HEK293; 1 µM, 50 ms depolarizing pulse; relative to: compound over control).
For `CC(=O)O[C@@H]1[C@@H](OC(C)=O)[C@@H](OC(C)=O)C(OC(=N)C(Cl)(Cl)Cl)O[C@H]1C` (stereo partly shown), the inhibition was 53.7% (Severe acute respiratory syndrome coronavirus 2; viral replication; 293T/ACE2; 20 µM).
The IC50 of `CCCCCCCCCCCCC1O[C@@H]2C[C@H]3[C@@H]4CCC5=CC(=O)C=C[C@]5(C)[C@H]4[C@@H](O)C[C@]3(C)[C@]2(C(=O)CO)O1` (stereo partly shown) is reported as 6.1 µM (Severe acute respiratory syndrome coronavirus 2; viral replication, inhibitor; VeroE6/TMPRSS2; 24 h).
For `C=CCOC(=O)C12CCC(C)(C)CC1C1=CCC3C4(C)CCC(OC5OC(COC(=O)C(C)(C)C)C(O)C(OC(=O)C(C)(C)C)C5O)C(C)(C)C4CCC3(C)C1(C)CC2` (stereo not shown), the inhibition was 24.4% (Severe acute respiratory syndrome coronavirus 2; viral replication; 293T/ACE2; 20 µM).
`CC[C@H](C)[C@@H]([C@@H](CC(=O)N1CCC[C@H]1[C@H](OC)[C@@H](C)C(=O)N[C@H](C)[C@@H](O)c1ccccc1)OC)N(C)C(=O)[C@@H](NC(=O)[C@H](C(C)C)N(C)C(=O)OCc1ccc(NC(=O)[C@H](CCCNC(N)=O)NC(=O)[C@@H](NC(=O)CCCC(=O)NCCC(=O)N(C)CC(=O)N(C)CC(=O)N(C)CC(=O)N(C)CC(=O)N(C)CC(=O)N(C)CC(=O)N(C)CC(=O)N(C)CC(=O)N(C)CC(=O)N(C)CC(=O)N[C@H]2CSCCC(=O)N3CN4CN(C3)C(=O)CCSC[C@H](NC(=O)[C@@H](CC(=O)O)NC(=O)[C@H](Cc3cccc5ccccc35)NC(=O)[C@@H]3CCCN3C2=O)C(=O)N[C@@H](CCSC)C(=O)N[C@@H](CCCCNC(=N)N)C(=O)N[C@@H](CC(=O)O)C(=O)N[C@@H](Cc2c[nH]c3ccccc23)C(=O)N[C@@H](CO)C(=O)N[C@@H]([C@@H](C)O)C(=O)N2CCC[C@H]2C(=O)N2C[C@H](O)C[C@H]2C(=O)N[C@@H](Cc2c[nH]c3ccccc23)C(=O)N[C@H](C(N)=O)CSCCC4=O)C(C)C)cc1)C(C)C` has a t_half of greater than 3470 min (human plasma; 2 µM, pH 7.4).
`CCCCCCC1O[C@@H]2C[C@H]3[C@@H]4CCC5=CC(=O)C=C[C@]5(C)[C@H]4[C@@H](O)C[C@]3(C)[C@]2(C(=O)CO)O1` (stereo partly shown) gave an IC50 of 10.9 µM (Severe acute respiratory syndrome coronavirus 2; viral replication, inhibitor; Calu-3).
The terminal half-life of `CC[C@H](C)[C@H](NC(=O)[C@H](CCCN)NC(=O)[C@H](CC(=O)O)NC(=O)[C@H](CC(C)C)NC(=O)C(C)(CC(C)C)NC(=O)[C@@H](NC(=O)[C@H](CO)NC(=O)[C@H](Cc1ccc(O)cc1)NC(=O)[C@H](CC(=O)O)NC(=O)[C@H](CO)NC(=O)[C@@H](NC(=O)[C@H](Cc1ccccc1)NC(=O)[C@@H](NC(=O)CNC(=O)[C@H](CCC(=O)O)NC(=O)C(C)(C)NC(=O)[C@@H](N)Cc1ccc(O)cc1)[C@@H](C)O)[C@@H](C)CC)[C@@H](C)CC)C(=O)N[C@@H](Cc1c[nH]cn1)C(=O)N[C@@H](CCC(N)=O)C(=O)NC(C)(C)C(=O)N[C@@H](CC(=O)O)C(=O)N[C@@H](Cc1ccccc1)C(=O)N[C@H](C(=O)N[C@@H](CCC(=O)O)C(=O)N[C@@H](Cc1ccc(O)cc1)C(=O)N[C@@H](CCCCNC(=O)COCCOCCNC(=O)COCCOCCNC(=O)CC[C@H](NC(=O)CCCCCCCCCCCCCCCCCCC(=O)O)C(=O)O)C(=O)N[C@@H](CC(C)C)C(=O)N[C@@H](CCC(=O)O)C(=O)NCC(=O)NCC(=O)N1CCC[C@H]1C(=O)N[C@@H](CO)C(=O)N[C@@H](CO)C(=O)NCC(=O)N[C@@H](C)C(=O)N1CCC[C@H]1C(=O)N1CCC[C@H]1C(=O)N1CCC[C@H]1C(=O)N[C@@H](CO)C(N)=O)C(C)C` (stereo partly shown) is reported as 12 days (healthy human; subcutaneous, 25 mg single dose, geometric mean).
With `C[C@]12C=CC(=O)C=C1CC[C@@H]1[C@@H]2[C@@H](O)C[C@@]2(C)[C@H]1C[C@H]1OC(c3ccccc3)O[C@]12C(=O)CO` (stereo partly shown) the IC50 was greater than 30 µM (Severe acute respiratory syndrome coronavirus 2; viral replication, inhibitor; VeroE6/TMPRSS2; 24 h).
With `O=C(O[C@@H]1Cc2c(O)cc(O)cc2O[C@@H]1c1cc(O)c(O)c(O)c1)c1cc(O)c(O)c(O)c1` the EC50 was greater than 100 µM (Severe acute respiratory syndrome coronavirus 2; antiviral activity; Huh-7; 96 h).
